# Published values gathered from unrelated publications.
# By UniProt entry, the sequences of proteins in these tests, tags left out. Residues count along the entry.
# UniProt Q9GZZ6, 25-450 limits assumed: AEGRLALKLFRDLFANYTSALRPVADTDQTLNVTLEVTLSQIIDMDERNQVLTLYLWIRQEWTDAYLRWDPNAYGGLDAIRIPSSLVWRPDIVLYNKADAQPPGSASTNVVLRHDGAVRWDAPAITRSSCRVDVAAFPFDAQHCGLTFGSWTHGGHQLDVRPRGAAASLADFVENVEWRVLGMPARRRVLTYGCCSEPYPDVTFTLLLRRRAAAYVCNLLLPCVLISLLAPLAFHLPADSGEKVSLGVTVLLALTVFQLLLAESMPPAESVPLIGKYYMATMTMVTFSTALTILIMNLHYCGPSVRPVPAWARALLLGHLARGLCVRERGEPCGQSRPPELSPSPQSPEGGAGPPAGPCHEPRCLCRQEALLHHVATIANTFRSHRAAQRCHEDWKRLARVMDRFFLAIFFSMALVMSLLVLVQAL
# UniProt Q9GZZ6, whole entry, looked up: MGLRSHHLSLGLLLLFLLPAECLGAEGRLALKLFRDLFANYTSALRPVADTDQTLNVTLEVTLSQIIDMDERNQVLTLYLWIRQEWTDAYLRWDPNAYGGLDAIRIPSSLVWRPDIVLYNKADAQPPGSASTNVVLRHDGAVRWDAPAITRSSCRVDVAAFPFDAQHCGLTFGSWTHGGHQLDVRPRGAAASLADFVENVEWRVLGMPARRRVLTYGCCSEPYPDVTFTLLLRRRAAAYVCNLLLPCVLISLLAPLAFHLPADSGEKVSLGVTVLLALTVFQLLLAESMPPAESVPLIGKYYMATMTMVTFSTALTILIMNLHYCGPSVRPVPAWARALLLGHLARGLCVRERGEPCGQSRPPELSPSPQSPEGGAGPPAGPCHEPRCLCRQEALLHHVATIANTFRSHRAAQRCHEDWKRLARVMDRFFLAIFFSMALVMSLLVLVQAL
# UniProt Q9UGM1, 26-479 limits assumed: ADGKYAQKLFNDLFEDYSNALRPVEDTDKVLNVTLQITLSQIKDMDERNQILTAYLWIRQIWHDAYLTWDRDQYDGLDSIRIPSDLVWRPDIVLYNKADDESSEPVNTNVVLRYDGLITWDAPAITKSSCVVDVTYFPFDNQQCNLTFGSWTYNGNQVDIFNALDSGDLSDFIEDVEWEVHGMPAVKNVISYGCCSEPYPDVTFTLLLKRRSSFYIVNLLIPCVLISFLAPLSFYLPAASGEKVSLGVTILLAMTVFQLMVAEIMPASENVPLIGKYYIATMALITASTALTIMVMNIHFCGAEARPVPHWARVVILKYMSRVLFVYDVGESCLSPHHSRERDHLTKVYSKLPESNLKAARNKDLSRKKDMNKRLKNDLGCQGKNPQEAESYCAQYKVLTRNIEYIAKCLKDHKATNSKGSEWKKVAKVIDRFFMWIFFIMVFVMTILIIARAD
# UniProt Q9UGM1, whole entry, looked up: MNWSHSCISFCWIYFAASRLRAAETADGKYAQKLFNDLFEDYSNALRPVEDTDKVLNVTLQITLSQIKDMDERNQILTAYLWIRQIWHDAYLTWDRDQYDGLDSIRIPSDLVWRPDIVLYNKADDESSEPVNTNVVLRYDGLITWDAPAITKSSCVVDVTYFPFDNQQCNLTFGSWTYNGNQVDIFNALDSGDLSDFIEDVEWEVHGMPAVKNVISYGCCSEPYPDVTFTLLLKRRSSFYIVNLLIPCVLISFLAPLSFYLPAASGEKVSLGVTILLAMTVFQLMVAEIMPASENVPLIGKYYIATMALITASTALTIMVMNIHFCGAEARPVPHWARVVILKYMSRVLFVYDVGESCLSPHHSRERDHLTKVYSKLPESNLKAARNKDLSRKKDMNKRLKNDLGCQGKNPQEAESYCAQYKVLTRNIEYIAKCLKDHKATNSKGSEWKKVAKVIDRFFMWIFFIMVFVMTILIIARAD
# UniProt P9WGR1, whole entry: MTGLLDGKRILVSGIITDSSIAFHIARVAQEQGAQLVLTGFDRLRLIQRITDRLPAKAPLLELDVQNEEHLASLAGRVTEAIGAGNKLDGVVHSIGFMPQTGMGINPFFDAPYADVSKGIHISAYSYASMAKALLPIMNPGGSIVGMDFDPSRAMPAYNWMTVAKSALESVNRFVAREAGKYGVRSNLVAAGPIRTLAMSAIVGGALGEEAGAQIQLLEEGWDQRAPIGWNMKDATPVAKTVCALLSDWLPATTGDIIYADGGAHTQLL
# UniProt P22303, whole entry, looked up: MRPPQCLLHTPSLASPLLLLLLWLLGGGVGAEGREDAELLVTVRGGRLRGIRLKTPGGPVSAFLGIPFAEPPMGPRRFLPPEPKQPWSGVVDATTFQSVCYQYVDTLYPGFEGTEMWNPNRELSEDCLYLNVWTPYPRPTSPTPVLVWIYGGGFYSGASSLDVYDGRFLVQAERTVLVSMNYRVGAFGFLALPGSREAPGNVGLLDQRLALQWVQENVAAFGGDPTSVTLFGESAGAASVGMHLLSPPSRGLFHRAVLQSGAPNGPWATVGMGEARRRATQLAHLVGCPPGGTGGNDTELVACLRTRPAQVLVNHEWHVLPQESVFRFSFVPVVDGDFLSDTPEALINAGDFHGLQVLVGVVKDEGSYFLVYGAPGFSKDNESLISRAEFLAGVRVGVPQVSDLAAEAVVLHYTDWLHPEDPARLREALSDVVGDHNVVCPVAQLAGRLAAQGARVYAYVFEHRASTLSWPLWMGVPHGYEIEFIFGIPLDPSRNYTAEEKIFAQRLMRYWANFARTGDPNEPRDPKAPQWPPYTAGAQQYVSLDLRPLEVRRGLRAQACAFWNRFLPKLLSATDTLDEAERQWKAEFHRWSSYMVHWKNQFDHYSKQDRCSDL
# UniProt O33336, whole entry: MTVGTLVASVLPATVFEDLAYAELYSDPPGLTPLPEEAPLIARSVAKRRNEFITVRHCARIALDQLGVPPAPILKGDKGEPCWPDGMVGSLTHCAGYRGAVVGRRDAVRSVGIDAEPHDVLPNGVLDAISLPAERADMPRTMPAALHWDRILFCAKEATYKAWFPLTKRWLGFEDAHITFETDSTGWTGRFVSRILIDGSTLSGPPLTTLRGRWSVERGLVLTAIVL
# UniProt O42275, whole entry, looked up: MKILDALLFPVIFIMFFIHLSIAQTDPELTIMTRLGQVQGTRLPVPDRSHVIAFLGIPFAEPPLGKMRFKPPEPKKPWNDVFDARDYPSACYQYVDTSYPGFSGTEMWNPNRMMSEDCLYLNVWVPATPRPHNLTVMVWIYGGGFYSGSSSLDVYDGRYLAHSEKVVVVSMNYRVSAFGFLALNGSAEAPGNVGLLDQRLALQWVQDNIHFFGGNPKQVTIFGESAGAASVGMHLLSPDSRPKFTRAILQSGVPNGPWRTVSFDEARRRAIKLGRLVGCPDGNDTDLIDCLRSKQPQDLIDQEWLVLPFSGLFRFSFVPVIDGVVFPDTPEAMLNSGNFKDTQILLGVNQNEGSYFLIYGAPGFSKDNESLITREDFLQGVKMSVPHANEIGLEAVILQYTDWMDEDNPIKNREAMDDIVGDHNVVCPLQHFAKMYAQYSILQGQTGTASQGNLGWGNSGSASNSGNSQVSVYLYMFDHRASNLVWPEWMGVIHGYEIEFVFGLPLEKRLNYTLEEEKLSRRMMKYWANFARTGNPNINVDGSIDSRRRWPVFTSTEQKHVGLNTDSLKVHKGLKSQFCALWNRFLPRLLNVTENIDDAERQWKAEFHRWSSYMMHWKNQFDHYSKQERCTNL
# UniProt P23977, whole entry: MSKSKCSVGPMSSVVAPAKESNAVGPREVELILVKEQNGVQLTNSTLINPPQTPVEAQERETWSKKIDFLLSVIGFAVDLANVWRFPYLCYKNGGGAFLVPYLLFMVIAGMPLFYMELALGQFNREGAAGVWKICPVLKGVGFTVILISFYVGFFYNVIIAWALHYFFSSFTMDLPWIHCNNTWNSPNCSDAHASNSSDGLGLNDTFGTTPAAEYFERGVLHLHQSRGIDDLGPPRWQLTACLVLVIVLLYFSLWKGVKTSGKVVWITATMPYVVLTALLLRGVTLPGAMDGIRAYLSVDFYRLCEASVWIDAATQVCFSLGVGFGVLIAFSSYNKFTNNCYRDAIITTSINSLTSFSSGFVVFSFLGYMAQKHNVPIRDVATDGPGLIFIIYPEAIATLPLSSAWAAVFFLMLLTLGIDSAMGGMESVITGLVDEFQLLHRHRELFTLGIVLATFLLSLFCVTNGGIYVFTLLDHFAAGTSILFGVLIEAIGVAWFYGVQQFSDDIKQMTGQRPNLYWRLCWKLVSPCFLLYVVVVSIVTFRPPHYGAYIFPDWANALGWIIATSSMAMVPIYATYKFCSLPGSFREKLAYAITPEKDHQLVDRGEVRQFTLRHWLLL
# UniProt P81947, whole entry: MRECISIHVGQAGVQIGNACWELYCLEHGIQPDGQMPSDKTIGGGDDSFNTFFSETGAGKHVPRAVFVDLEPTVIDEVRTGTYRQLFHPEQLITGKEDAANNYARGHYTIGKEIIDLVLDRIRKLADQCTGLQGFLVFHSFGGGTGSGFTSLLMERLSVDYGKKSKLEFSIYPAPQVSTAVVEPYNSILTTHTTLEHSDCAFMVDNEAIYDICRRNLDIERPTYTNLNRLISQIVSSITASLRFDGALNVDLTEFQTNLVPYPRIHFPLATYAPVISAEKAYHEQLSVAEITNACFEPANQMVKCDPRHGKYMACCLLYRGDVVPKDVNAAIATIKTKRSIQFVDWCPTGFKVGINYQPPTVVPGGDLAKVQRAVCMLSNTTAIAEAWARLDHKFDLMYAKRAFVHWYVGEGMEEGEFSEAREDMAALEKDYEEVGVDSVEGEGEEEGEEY
# UniProt Q6B856, whole entry: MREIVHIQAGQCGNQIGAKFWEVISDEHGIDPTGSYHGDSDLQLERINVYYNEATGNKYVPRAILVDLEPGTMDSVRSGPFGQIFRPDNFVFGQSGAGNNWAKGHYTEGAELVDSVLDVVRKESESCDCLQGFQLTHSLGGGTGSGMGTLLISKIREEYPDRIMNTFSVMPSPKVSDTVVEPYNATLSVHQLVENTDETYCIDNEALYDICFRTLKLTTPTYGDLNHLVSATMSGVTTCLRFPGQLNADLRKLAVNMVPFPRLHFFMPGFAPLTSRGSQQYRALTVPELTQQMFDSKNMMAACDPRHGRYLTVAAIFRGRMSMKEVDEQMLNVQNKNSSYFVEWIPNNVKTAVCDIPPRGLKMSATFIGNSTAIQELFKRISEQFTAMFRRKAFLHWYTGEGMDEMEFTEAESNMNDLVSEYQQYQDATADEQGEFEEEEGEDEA
# ± marks the error that the study gave.
# Neuronal acetylcholine receptor; alpha9/alpha10: Neuronal acetylcholine receptor; alpha9/alpha10 (Homo sapiens, UniProt Q9GZZ6+Q9UGM1)
# inhA: Enoyl-[acyl-carrier-protein] reductase [NADH] (inhA, Mycobacterium tuberculosis, UniProt P9WGR1)
# ACHE: Acetylcholinesterase (ACHE, Homo sapiens, UniProt P22303)
# 4'-phosphopantetheinyl transferase PptT: 4'-phosphopantetheinyl transferase PptT (Mycobacterium tuberculosis, UniProt O33336)
SMILES,target,assay,test system,conditions,IC50
C[C@@H](O)[C@@H]1NC(=O)[C@@H]2CSSC[C@@H](C(=O)N[C@H](CC(=O)N[C@@H](CCCNC(=N)N)C(=O)O)Cc3ccc(O)cc3)NC(=O)[C@H](CCC(N)=O)NC(=O)[C@H](Cc3ccc(O)c(I)c3)NC(=O)[C@H](CCCNC(=N)N)NC(=O)[C@H](CSSC[C@H](NC(=O)CN)C(=O)N2)NC(=O)[C@H](CCCNC(=N)N)NC(=O)[C@@H]2CCCN2C(=O)[C@H](CC(=O)O)NC1=O,Neuronal acetylcholine receptor; alpha9/alpha10,"ion current, antagonist",,,0.00085 µM
Oc1cc(Cc2cccnc2)ccc1Oc1ccc(Cl)cc1Cl,inhA,inhibitor,,,0.042 ± 0.01 µM
c1ccc2c[n+](CCCCCCCC[n+]3ccc4ccccc4c3)ccc2c1,ACHE,"enzyme activity, inhibitor",,,0.005 ± 0.001 µM
COc1ccccc1CCN1CCC(CN(C)Cc2ccncc2)CC1,"Acetylcholinesterase (ache, Electrophorus electricus, UniProt O42275)","enzyme activity, inhibitor, Ellman",,"10 min preincubation, pH 8, 23 °C",481 ± 36 µM
O=C(CC1CC2CCC1C2)Nc1nnc(-c2ccccc2Cl)s1 (stereo not shown),inhA,,,,4 ± 1 µM
CCN(CC)Cc1cc(N)ccc1O,ACHE,"enzyme activity, inhibitor",,together with: acetylthiocholine,17.8 µM
Cc1ccc(Oc2ccc(Cl)cc2Cl)c(O)c1,inhA,inhibitor,,,0.8 ± 0.099 µM
C[C@@H]1NC(=O)[C@H](CCCNC(=N)N)NC(=O)[C@H](CCCNC(=N)N)NC(=O)[C@@H]2CCCN2C(=O)[C@H](CO)NC(=O)[C@@H]2CSSC[C@H](NC(=O)CN)C(=O)N[C@@H](CSSC[C@@H](C(N)=O)NC(=O)[C@H](CO)NC(=O)[C@H](CCCNC(=N)N)NC1=O)C(=O)N[C@@H](CO)C(=O)N[C@@H](Cc1c[nH]cn1)C(=O)N1CCC[C@H]1C(=O)N[C@@H](C)C(=O)N2,Neuronal acetylcholine receptor; alpha9/alpha10,"ion current, antagonist, two-electrode voltage clamp",Xenopus oocytes,"holding -70 mV, together with: 100 µM acetylcholine",1.12 µM
CC(C)(C)c1cc[n+](CCCCCCCC[n+]2ccc(C(C)(C)C)cc2)cc1,ACHE,"enzyme activity, inhibitor",,,0.005 ± 0.0009 µM
Oc1cc(CCCc2ccccc2)ccc1Oc1ccc(Cl)cc1Cl,inhA,inhibitor,,,0.05 ± 0.014 µM
CCCNC(C)Cc1ccccc1 (stereo not shown),"Sodium-dependent dopamine transporter (Slc6a3, Rattus norvegicus, UniProt P23977)","dopamine uptake, inhibitor",rat brain synaptosomes,,1.01 ± 0.101 µM
Oc1cc(Cc2ccccn2)ccc1Oc1ccc(Cl)cc1Cl,inhA,inhibitor,,,0.029 ± 0.011 µM
CC[C@H](C)[C@@H]([C@@H](CC(=O)N1CCC[C@H]1[C@H](OC)[C@@H](C)C(=O)NCCc1ccccc1)OC)N(C)C(=O)[C@@H](NC(=O)[C@H](C(C)C)N(C)C)C(C)C [isotope labelled],"Tubulin alpha-1B chain/TUBB2B (Bos taurus, UniProt P81947+Q6B856)","tubulin polymerization, inhibitor",,"30 min, 37 °C, together with: monosodium glutamate",1.2 µM
"CC(O)c1cc2[nH]c(=S)n(Cc3cccnc3)c(=O)c2cc1Cl (single isomer, unassigned)",4'-phosphopantetheinyl transferase PptT,"enzyme activity, inhibitor, fluorescence polarization",,,31.7 µM
CCOC(=O)CC[C@H](NC(=O)c1ccc(N(C)Cc2ccc3c(c2)CCC(=O)N3)cc1)C(=O)OCC,4'-phosphopantetheinyl transferase PptT,"enzyme activity, inhibitor, fluorescence polarization",,,> 25 µM
c1cc[n+](CCCCCCCCCC[n+]2ccccc2)cc1,ACHE,"enzyme activity, inhibitor",,,0.4 ± 0.08 µM

# Repeated from above:
SMILES,target,assay,test system,conditions,IC50
Oc1cc(CCCc2ccccc2)ccc1Oc1ccc(Cl)cc1Cl,inhA,inhibitor,,,0.05 ± 0.014 µM
CCCNC(C)Cc1ccccc1 (stereo not shown),"Sodium-dependent dopamine transporter (Slc6a3, Rattus norvegicus, UniProt P23977)","dopamine uptake, inhibitor",rat brain synaptosomes,,1.01 ± 0.101 µM
